Assay results from different studies.
Parts stem from different laboratories: compare values within a part only. Substitutions count along the parent as printed.

Series 1
Target: CCNB2, cyclin fold, Cln2 fusion (human)
Technique: yeast growth competition, sequencing
Medium: yeast
Notes: weak parent motif
Baseline: not given
Direction: higher = stronger binding
Quantity: normalised enrichment score
Parent: CDC25A docking peptide (human); PPHRRRLLFACSP
F9G: 0.829
F9N: 0.413
P13K: 0.443
A10C: 0.205
L8Y: 0.625
P2V: 0.615
P13F: 0.793

Series 2
Target: TAR DNA-binding protein 43, full length, His tag (TARDBP, Homo sapiens, UniProt Q13148, residues 1-414)
Technique: RNA Bind-n-Seq
Form: RNA
Medium: in vitro
Tested at: 20 nM
Notes: 6-mer, flanks averaged, single round
Added: 150 mM KCl
Baseline: input library
Direction: higher = stronger binding
Quantity: 6-mer enrichment (R)
CCACGC: 0.702
CCCGUC: 0.598
UCAGGG: 2.05
CCCGCC: 0.642
CAUCUU: 0.566
GCGUAA: 0.934
GUCUGA: 0.816
GGAUCU: 0.841

Series 3
Target: Histone acetyltransferase KAT6A, both winged helices, GST fusion (KAT6A, Homo sapiens, UniProt Q92794, residues 1-181)
Technique: protein binding microarray
Form: double-stranded DNA, one strand shown
Medium: in vitro
Tested at: not given
Notes: 8-mer, flanks averaged, mean of 2 arrays, mostly near background
Baseline: not given
Direction: higher = stronger binding
Quantity: E-score
Target sequence (chain): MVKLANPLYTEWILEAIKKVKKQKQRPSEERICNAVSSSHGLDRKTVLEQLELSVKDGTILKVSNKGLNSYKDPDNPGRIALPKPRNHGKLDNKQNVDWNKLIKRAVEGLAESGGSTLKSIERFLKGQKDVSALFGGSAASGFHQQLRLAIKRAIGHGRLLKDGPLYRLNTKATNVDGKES
GGTCATAC: 0.123
AACTTGTG: -0.132
AGCAAATG: -0.276
GGTGAACA: -0.127
ATGGTAGA: -0.0877
CGAGCACG: 0.127
GAGAACCC: -0.196

Other studies, line by line
PhoQ, residues 284 288 289 292 302 303 SSTLSG — fold induction (PhoP, residues 12 14 15 18 19 IFFTR (Escherichia coli, UniProt P23836); Sort-seq, measured: YFP reporter; E. coli; PhoQ-PhoP variant library, added: 10 µM Mg2+; baseline: high Mg2+ state, higher = stronger signaling): 5.26

Some of these lines once more (series 1):
P2V: 0.615
P13K: 0.443
L8Y: 0.625
